Published values gathered from unrelated publications.
Each numbered part is a random draw from the data of one study; scales do not carry over between parts.

Series 1
Target: Sal-like protein 4, full length isoform A (SALL4, Homo sapiens, UniProt Q9UJQ4, residues 1-1053)
Chain of UniProt Q9UJQ4 (whole entry, looked up): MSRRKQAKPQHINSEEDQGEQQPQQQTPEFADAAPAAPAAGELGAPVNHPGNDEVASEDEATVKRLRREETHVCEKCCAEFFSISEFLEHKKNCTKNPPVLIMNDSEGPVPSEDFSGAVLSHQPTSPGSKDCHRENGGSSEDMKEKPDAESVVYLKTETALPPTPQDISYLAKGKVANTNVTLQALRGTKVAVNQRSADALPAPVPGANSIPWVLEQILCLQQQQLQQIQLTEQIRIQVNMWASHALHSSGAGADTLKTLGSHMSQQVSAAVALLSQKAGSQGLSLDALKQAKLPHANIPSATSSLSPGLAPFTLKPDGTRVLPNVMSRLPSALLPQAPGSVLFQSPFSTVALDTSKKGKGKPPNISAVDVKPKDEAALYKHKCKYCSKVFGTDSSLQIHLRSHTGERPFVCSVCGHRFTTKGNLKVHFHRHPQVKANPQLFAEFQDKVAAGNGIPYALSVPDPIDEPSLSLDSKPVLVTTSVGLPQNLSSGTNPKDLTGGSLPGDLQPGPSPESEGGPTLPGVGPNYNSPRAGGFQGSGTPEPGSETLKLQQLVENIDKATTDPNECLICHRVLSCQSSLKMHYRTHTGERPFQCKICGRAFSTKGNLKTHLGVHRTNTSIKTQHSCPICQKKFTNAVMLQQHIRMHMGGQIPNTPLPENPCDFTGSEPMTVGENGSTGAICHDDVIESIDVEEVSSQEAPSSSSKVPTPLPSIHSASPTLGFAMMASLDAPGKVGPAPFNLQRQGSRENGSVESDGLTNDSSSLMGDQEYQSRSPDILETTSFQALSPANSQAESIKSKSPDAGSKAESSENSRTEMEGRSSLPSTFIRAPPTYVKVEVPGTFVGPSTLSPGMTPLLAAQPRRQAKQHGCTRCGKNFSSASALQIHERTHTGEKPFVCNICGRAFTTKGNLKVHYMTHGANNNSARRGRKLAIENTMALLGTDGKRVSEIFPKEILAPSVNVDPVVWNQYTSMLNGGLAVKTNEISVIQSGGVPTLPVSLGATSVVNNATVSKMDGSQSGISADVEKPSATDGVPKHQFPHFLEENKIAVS
Method: universal PBM
Form: double-stranded DNA, one strand shown
Sample: in vitro
Concentration: 600 nM
Setting: 8-mer, flanks averaged, mean of replicates
Reading: higher = stronger binding
The E-score of `ATTGACTC` is reported as 0.089.
The E-score of `CCCAACAA` is reported as -0.0636.
The E-score of `ATTCGGCG` is reported as -0.152.
`CCTACATC` gave an E-score of 0.0338.
`AAAACGCG` gave an E-score of -0.0331.
`TAGGTGGA` has an E-score of 0.152.
With `CGGTTAGC` the E-score was -0.179.
The E-score of `AAGAAGGG` is reported as -0.14.

Series 2
Target: Interferon regulatory factor 7, full length, phosphomimetic (IRF7, Homo sapiens, UniProt Q92985, residues 1-503, S471D/S472D/S475D/S476D/S477D/S483D/S484D/S487D)
Method: protein-binding microarray
Form: double-stranded DNA, one strand shown
Sample: in vitro
Concentration: 2200 nM top
Setting: 60-bp whole probe
With: salmon DNA 0.4 mg/ml
Baseline: random background probes
Reading: higher = stronger binding
Constant ends, left off below: GCCTAGCAC … GTGCTAGGTCTTGATTCGCTTGACGCTGCTG
Construct (chain): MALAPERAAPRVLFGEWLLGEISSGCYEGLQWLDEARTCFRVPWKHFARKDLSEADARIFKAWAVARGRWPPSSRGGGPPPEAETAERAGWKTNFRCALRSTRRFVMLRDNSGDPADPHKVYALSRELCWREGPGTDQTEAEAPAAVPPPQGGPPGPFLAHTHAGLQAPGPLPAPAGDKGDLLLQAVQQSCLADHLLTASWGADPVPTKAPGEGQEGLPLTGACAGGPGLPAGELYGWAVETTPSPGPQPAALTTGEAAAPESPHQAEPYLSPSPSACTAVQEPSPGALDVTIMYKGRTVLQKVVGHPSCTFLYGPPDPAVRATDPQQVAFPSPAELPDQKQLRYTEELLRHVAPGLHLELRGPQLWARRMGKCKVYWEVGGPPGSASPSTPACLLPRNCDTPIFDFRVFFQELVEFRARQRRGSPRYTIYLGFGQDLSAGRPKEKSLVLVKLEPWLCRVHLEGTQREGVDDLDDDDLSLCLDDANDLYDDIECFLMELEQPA
Under “fitted relative affinity”, `GACGGTTTCCTACTGCTGTC` is recorded as 2.29 z-score.
`GACGGTCTCCTTCTCCGGAC`: “fitted relative affinity” 0.592 z-score.
`GACGGTCTCGGACTGGGGAC`: “fitted relative affinity” -0.386 z-score.
Under “fitted relative affinity”, `TCAAGGTCCCTTTTCATACT` is recorded as 1.28 z-score.
`TTAGGTTTACTTCTCCTTTA` — result for “fitted relative affinity”: 1.43 z-score.
For `TCATGTCTGGGTCTTGGACT`, “fitted relative affinity” read 0.228 z-score.
`TCAGCTTTGCCTTTTGCACT` — result for “fitted relative affinity”: 1.01 z-score.
`TTAGATTTGAGACTGGATTA`: “fitted relative affinity” -0.295 z-score.

Series 3
Cell line: HEK-293T/ACE2
Concentration: 10 µM
Time: 16 h
Baseline: vehicle
`Cn1cc[nH]c1=S` has a viability of 98.1%.
The viability of `Cc1cc2nc3c(=O)[nH]c(=O)nc-3n(C[C@H](O)[C@H](O)[C@H](O)CO)c2cc1C` is reported as 102%.
For `CN(C)C(=O)Oc1ccc[n+](C)c1`, the viability was 97.6%.

Other studies, line by line
With `O=c1c(O)c(-c2ccc(O)c(O)c2)oc2cc(O)ccc12` the inhibition was 107% (Replicase polyprotein 1ab, nsp12 with nsp7/nsp8 (rep, Severe acute respiratory syndrome coronavirus 2, UniProt P0DTD1); inhibitor; SARS-CoV-2; 20 µM).

Excerpt of the above (series 2):
Under “fitted relative affinity”, `GACGGTTTCCTACTGCTGTC` is recorded as 2.29 z-score.
`TTAGATTTGAGACTGGATTA`: “fitted relative affinity” -0.295 z-score.
`TCAGCTTTGCCTTTTGCACT` — result for “fitted relative affinity”: 1.01 z-score.
